Assay results of several laboratories.
Lines come from different studies, so protocols differ. Numbers after ± are the reported error.

Structure (SMILES)	assay	system	conditions	scale	endpoint	value
CNC(=O)c1c(C)oc2cc(Oc3ncnc4cc(OC)c(OC)cc34)ccc12	final population PK model	human	oral	–	elimination half-life	43.2 h
CC(F)(F)c1cc(F)ccc1-c1sc2cc(O)ccc2c1Oc1ccc(/C=C/C(=O)O)cc1	–	human patients, plasma	oral, 200 to 900 mg, geometric mean, preliminary	–	elimination half-life	3.1 to 5.6 h
CC[C@H](Nc1ncnc2[nH]cnc12)c1oc2ccccc2c(=O)c1-c1cccc(F)c1	–	human, plasma	oral, 800 mg twice daily, with: romidepsin 14 mg/m2	–	elimination rate constant	2.75e-05 ± 3.17e-05 s⁻¹
Cl.[2H]C([2H])([2H])CC(=O)c1cnc(NC(=O)C2CC2)cc1Nc1cccc(-c2ncn(C([2H])([2H])[2H])n2)c1OC	geometric mean	human	oral, 10 mg once daily, day 1, fasted, liquid, multiple dose	–	elimination rate constant	2.61e-05 s⁻¹
NC[C@@]1(CC(=O)O)[C@@H]2CC[C@H]3C[C@@H]2[C@@H]1C3	–	human, moderate renal impairment, plasma	oral, 20 mg single dose, geometric mean	–	elimination rate constant	3.22e-05 s⁻¹
O=C(CN[C@@H]1CCNC1)N1CCC[C@H]1B(O)O	PK model	human, plasma	subcutaneous, 60 mg once daily	–	elimination rate constant	0.000125 s⁻¹
CCNCCCNC/C=C\CNCCCNCC	LC-MS/MS	human cancer patients, plasma	intravenous infusion 60 min, 50 mg, median, cycle 1	–	elimination rate constant	0.0011 s⁻¹
NCCONC(=O)[C@@H]1CC[C@@H]2CN1C(=O)N2OS(=O)(=O)O	–	human, plasma	intravenous infusion, 2 g multiple doses, day 9, phase I	–	elimination rate constant	7.36e-05 s⁻¹
N#Cc1ccc(C(c2ccc(C#N)cc2)n2cncn2)cc1	one-compartment model	human patients, plasma	oral	–	elimination half-life	60 to 90 h
Cc1ccc(C)c(OCCCC(C)(C)C(=O)O)c1	–	human subjects	with: lopinavir-ritonavir	baseline: without lopinavir-ritonavir	elimination half-life	no effect
COc1ncnn2ccc(-c3cnc4nc(C)n(Cc5nnc([C@@H](C)F)o5)c4c3)c12	LC-MS/MS	human, plasma	oral, 105 mg capsule, cycle 1 day 1	–	elimination half-life	5.23 h
